# Assay results gathered from unrelated publications.
# Values joined by “and” are separate records of one study, mostly repeats; a detail may differ.
Compound,target or system,assay,test system,conditions,scale,quantity,result
CCCCNCCO.O=C(O)C(Cl)Cl,Chenopodium album,herbicidal activity,,"15 mg/mL, 21 days, pre-emergence greenhouse",,inhibition,0%
CN(C)CCCSC(=S)N1CCN(C(=O)/C=C/c2coc3ccccc3c2=O)CC1,TMV,virus inactivation,,500 µg/mL,,inhibition,79% and 78% and 81%
C[N+]1=C2C=C(NCCc3c[nH]c4ccccc34)C(=O)c3[nH]cc(c32)CC1,Saccharomyces cerevisiae,"cell growth, liquid culture",BY4741,"100 µM, 24 h",,inhibition,62.3%
Nc1ncc(-c2cc(-c3cnn(CC(F)(F)F)c3)ncc2F)nc1C(=O)NC1CNCC(F)C1 (centres unmarked),AKT1,KINOMEscan,,1 µM,reference: DMSO control,remaining binding,99%
Cc1ccccc1C(c1c[nH]c(=O)[nH]c1=O)c1c[nH]c(=O)[nH]c1=O,HIV-1 subtype C,"p24 antigen production, p24 ELISA",,125 µg/mL,,inhibition,48%
C=CC(=O)Nc1cccc(Cn2ncc3cnc(Nc4cnn(CCOC)c4)nc32)c1,human p38-beta,KINOMEscan,,100 nM,reference: control,binding,98%
C[N+](C)(C)CCO.O=C([O-])C(Cl)Cl,Chenopodium album,herbicidal activity,,"15 mg/mL, 21 days, post-emergence greenhouse",,inhibition,0%
O=C1C(NCCc2cc(Br)c(O)c(Br)c2)=CC2=NCCc3c[nH]c1c32,Saccharomyces cerevisiae,"cell growth, liquid culture",BY4741,"100 µM, 24 h",,inhibition,66%
O=c1[nH]cc(C(c2ccc(Cl)cc2)c2c[nH]c(=O)[nH]c2=O)c(=O)[nH]1,HIV-1 subtype C,"p24 antigen production, p24 ELISA",,1.95 µg/mL,,inhibition,< 25%
CCCCC(=O)NC(c1ccc(N(CC)CC)cc1)c1ccc2cccnc2c1O (centres unmarked),Trypanosoma cruzi,"reporter mRNA translation, inhibitor, item: Renilla luciferase mRNA",cell-free extract,"concentration not given, test 1",reference: positive over negative control,translation activity,114% and 111%
O=c1[nH]cc(C(c2cccc(Cl)c2)c2c[nH]c(=O)[nH]c2=O)c(=O)[nH]1,HIV-1 subtype C,"p24 antigen production, p24 ELISA",,1000 µg/mL,,inhibition,93%
COc1ccc(CNc2nc([C@H]3CC[C@H](C(=O)O)CC3)nc3sc4ccccc4c23)cc1Cl,Cryptosporidium parvum,"parasite growth, immunofluorescence imaging","HCT-8, Iowa",18 µM,,inhibition,91.7% and 93.6%
CCc1sc(C(=O)NC2CCN(C)CC2)cc1Br,Trypanosoma cruzi,"reporter mRNA translation, inhibitor, item: Renilla luciferase mRNA",cell-free extract,"concentration not given, test 1",reference: positive over negative control,translation activity,108% and 93.2%
CC(O)CNCC(C)O.O=C(O)C(Cl)Cl (centres unmarked),Chenopodium album,herbicidal activity,,"15 mg/mL, 21 days, pre-emergence greenhouse",,inhibition,0%

# Some of these lines once more:
Compound,target or system,assay,test system,conditions,scale,quantity,result
Nc1ncc(-c2cc(-c3cnn(CC(F)(F)F)c3)ncc2F)nc1C(=O)NC1CNCC(F)C1 (centres unmarked),AKT1,KINOMEscan,,1 µM,reference: DMSO control,remaining binding,99%
CC(O)CNCC(C)O.O=C(O)C(Cl)Cl (centres unmarked),Chenopodium album,herbicidal activity,,"15 mg/mL, 21 days, pre-emergence greenhouse",,inhibition,0%
